Measured values pooled from the literature.
Protocols differ between the studies behind these lines. Numbers after ± are the reported error.

CCCC[C@H](NC(=O)CNC(=O)CNC(=O)CN1CCN(CC(=O)O)CCN(CC(=O)O)CC1)C(=O)N[C@H]1CC(=O)NCCCC[C@@H](C(N)=O)NC(=O)[C@H](Cc2c[nH]c3ccccc23)NC(=O)[C@H](CCCNC(=N)N)NC(=O)[C@@H](Cc2ccccc2)NC(=O)[C@H](Cc2c[nH]cn2)NC1=O [technetium-99m labelled]  tissue uptake (C57 mouse, heart; iv, 0.037 MBq, 24 h): 0.08 ± 0.07 %ID/g
Cc1cc(-c2ccc(NC(=O)[C@H](CCCCNC(=O)CCOCCOCCC(=O)N[C@H](Cc3ccccc3)C(=O)N[C@H]3CSSC[C@@H](C(=O)N[C@H](C(=O)O)[C@@H](C)O)NC(=O)[C@H]([C@@H](C)O)NC(=O)[C@H](CCCCN)NC(=O)[C@@H](Cc4c[nH]c5ccccc45)NC(=O)[C@H](Cc4ccc(O)cc4)NC3=O)NC(=O)CN3CCN(CC(=O)O)CCN(CC(=O)O)CCN(CC(=O)O)CC3)c(C)c2)ccc1N=Nc1ccc2c(S(=O)(=O)O)cc(S(=O)(=O)O)c(N)c2c1O [lutetium-177 labelled]  absorbed dose ratio (patients with metastatic NETs, liver metastases; reference: cpd over 177Lu-EB-TATE): 4 fold
CCCC[C@H](NC(=O)CCCCCCCNC(=O)CN1CCN(CC(=O)O)CCN(CC(=O)O)CC1)C(=O)N[C@H]1CC(=O)NCCCC[C@@H](C(N)=O)NC(=O)[C@H](Cc2c[nH]c3ccccc23)NC(=O)[C@H](CCCNC(=N)N)NC(=O)[C@@H](Cc2ccccc2)NC(=O)[C@H](Cc2c[nH]cn2)NC1=O [copper-64 labelled]  tissue uptake (C57 mice, pancreas; intravenous, 0.37 MBq, 24 h): 0.02 ± 0.04 %ID/g
N=C(N)NCCC[C@@H]1NC(=O)[C@H](CCCCNC(=O)CC[C@H](NC(=O)CC[C@H](NC(=O)CN2CCN(CC(=O)O)CCN(CC(=O)O)CCN(CC(=O)O)CC2)C(=O)N[C@@H](CCC(=O)NCCCC[C@@H]2NC(=O)[C@@H](Cc3ccccc3)NC(=O)[C@H](CC(=O)O)NC(=O)CNC(=O)[C@H](CCCNC(=N)N)NC2=O)C(=O)NCCCC[C@@H]2NC(=O)[C@@H](Cc3ccccc3)NC(=O)[C@H](CC(=O)O)NC(=O)CNC(=O)[C@H](CCCNC(=N)N)NC2=O)C(=O)NCCCC[C@@H]2NC(=O)[C@@H](Cc3ccccc3)NC(=O)[C@H](CC(=O)O)NC(=O)CNC(=O)[C@H](CCCNC(=N)N)NC2=O)NC(=O)[C@@H](Cc2ccccc2)NC(=O)[C@H](CC(=O)O)NC(=O)CNC1=O [indium-111 labelled]  tissue uptake (female athymic nu/nu mice, brain; intravenous, 1 h): 0.12 ± 0.01 %ID/g
CCCCCCCCCCCCCCCCCC(=O)OC[C@H](NC(=O)[C@H](Cc1c[nH]c2ccccc12)NC(=O)[C@H](Cc1c[nH]cn1)NC(=O)[C@@H]1CCC(=O)N1)C(=O)N[C@@H](Cc1ccc(O)cc1)C(=O)N[C@H](CC(C)C)C(=O)N[C@@H](CC(C)C)C(=O)N[C@@H](CCCNC(=N)N)C(=O)N1CCC[C@H]1C(=O)NCC  critical aggregation concentration (deionized water): 6.76 µg/mL
CCCC[C@H](NC(=O)CNC(=O)CNC(=O)CN1CCN(CC(=O)O)CCN(CC(=O)O)CCN(CC(=O)O)CC1)C(=O)N[C@H]1CC(=O)NCCCC[C@@H](C(N)=O)NC(=O)[C@H](Cc2c[nH]c3ccccc23)NC(=O)[C@H](CCCNC(=N)N)NC(=O)[C@@H](Cc2ccccc2)NC(=O)[C@H](Cc2c[nH]cn2)NC1=O [lutetium-177 labelled]  tissue uptake (C57 mouse, female, whole blood; intravenous, 0.037 MBq, 4 h): 0.15 ± 0.07 %ID/g
COc1ccc2cc([C@H](C)C(=O)NCCCC[C@@H](NC(=O)[C@@H](Cc3ccccc3)NC(=O)[C@H](N)Cc3ccccc3)C(=O)N[C@H](Cc3ccc(O)cc3)C(=O)O)ccc2c1  critical strain (oscillatory rheology; hydrogel 0.8 wt%): 0.4%
CCCC[C@H](NC(=O)COCCOCCNC(=O)CN1CCN(CC(=O)O)CCN(CC(=O)O)CC1)C(=O)N[C@H]1CC(=O)NCCCC[C@@H](C(N)=O)NC(=O)[C@H](Cc2c[nH]c3ccccc23)NC(=O)[C@H](CCCNC(=N)N)NC(=O)[C@@H](Cc2ccccc2)NC(=O)[C@H](Cc2c[nH]cn2)NC1=O [copper-64 labelled]  tissue uptake (C57 mice, bone; intravenous, 0.37 MBq, 24 h): 0.01 ± 0.01 %ID/g
N=C(N)NCCC[C@H](NC(=O)[C@@H]1CSSC[C@H](NC(=O)[C@H](Cc2ccc3ccccc3c2)NC(=O)[C@H](CCCNC(=N)N)NC(=O)[C@H](CCCNC(=N)N)NC(=O)CN2CCN(CC(=O)O)CCN(CC(=O)O)CC2)C(=O)N[C@@H](Cc2ccc(O)cc2)C(=O)N[C@@H](CCCNC(N)=O)C(=O)N[C@@H](CCCCN)C(=O)N[C@H](CCCCN)C(=O)N2CCC[C@H]2C(=O)N[C@@H](Cc2ccc(O)cc2)C(=O)N[C@@H](CCCNC(=N)N)C(=O)N[C@@H](CCCNC(N)=O)C(=O)N1)C(N)=O [gallium-68 labelled]  effective dose (human; 5 mCi, per injection): 4.7 mSv
N=C(N)NCCC[C@@H]1NC(=O)[C@H](CCCCNC(=O)CNC(=O)CNC(=O)CNC(=O)CC[C@H](NC(=O)CNC(=O)CNC(=O)CNC(=O)CC[C@H](NC(=O)CN2CCN(CC(=O)O)CCN(CC(=O)O)CCN(CC(=O)O)CC2)C(=O)NCC(=O)NCC(=O)NCC(=O)N[C@@H](CCC(=O)NCC(=O)NCC(=O)NCC(=O)NCCCC[C@@H]2NC(=O)[C@@H](Cc3ccccc3)NC(=O)[C@H](CC(=O)O)NC(=O)CNC(=O)[C@H](CCCNC(=N)N)NC2=O)C(=O)NCC(=O)NCC(=O)NCC(=O)NCCCC[C@@H]2NC(=O)[C@@H](Cc3ccccc3)NC(=O)[C@H](CC(=O)O)NC(=O)CNC(=O)[C@H](CCCNC(=N)N)NC2=O)C(=O)NCC(=O)NCC(=O)NCC(=O)NCCCC[C@@H]2NC(=O)[C@@H](Cc3ccccc3)NC(=O)[C@H](CC(=O)O)NC(=O)CNC(=O)[C@H](CCCNC(=N)N)NC2=O)NC(=O)[C@@H](Cc2ccccc2)NC(=O)[C@H](CC(=O)O)NC(=O)CNC1=O [indium-111 labelled]  tissue uptake (female athymic nu/nu mice, liver; intravenous, 4 h): 3.05 ± 0.14 %ID/g
